Published values pooled from the literature.
Lines come from different studies, so protocols differ. Numbers after ± are the reported error. Ends that are not written are not given here. No end group written: not given here.
TLR4/LY96: Toll-like receptor 4/MD-2 (TLR4/LY96, Homo sapiens, UniProt O00206+Q9Y6Y9)
Chain of UniProt O00206 (whole entry, looked up): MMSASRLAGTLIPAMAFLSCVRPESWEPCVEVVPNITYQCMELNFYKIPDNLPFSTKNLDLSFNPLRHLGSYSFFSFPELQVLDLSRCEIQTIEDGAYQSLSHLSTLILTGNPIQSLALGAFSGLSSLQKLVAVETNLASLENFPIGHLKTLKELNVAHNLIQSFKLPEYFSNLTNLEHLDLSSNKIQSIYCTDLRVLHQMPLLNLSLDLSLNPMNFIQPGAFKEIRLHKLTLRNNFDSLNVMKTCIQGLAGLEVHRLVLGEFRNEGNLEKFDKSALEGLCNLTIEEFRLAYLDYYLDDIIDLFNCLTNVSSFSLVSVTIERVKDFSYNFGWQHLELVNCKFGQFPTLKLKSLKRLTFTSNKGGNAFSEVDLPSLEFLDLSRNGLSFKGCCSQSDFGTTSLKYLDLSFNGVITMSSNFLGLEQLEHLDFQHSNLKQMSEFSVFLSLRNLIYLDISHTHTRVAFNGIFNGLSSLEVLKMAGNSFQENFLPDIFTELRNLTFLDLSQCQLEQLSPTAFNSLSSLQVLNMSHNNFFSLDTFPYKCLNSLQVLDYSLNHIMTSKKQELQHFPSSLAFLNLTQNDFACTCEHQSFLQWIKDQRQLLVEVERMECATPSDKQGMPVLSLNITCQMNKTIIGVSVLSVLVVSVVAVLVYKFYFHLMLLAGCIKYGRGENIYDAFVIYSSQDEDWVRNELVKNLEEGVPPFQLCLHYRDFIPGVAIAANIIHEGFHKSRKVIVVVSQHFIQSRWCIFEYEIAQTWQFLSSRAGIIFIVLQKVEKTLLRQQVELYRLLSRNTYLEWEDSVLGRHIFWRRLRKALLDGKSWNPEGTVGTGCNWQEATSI
Chain of UniProt Q9Y6Y9 (whole entry, looked up): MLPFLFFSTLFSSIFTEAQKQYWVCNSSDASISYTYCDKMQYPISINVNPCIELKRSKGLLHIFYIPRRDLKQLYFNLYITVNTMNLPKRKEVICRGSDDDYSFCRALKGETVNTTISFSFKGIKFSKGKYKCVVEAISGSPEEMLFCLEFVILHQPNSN
ITGAM: ITGAM (Homo sapiens, UniProt P11215)
B1: bovine β-casein; sequence looked up; chain RELEELNVPGEIVESLSSSEESITRINKKIEKFQSEEQQQTEDELQDKIHPFAQTQSLVYPFPGPIPNSLPQNIPPLTQTPVVVPPFLQPEVMGVSKVKEAMAPKHKEMPFPKYPVEPFTESQSLTLTDVENLHLPLPLLQSWMHQPHQPLPPTVMFPPQSVLSLSQSKVLPVPQKAVPYPQRDMPIQAFLLYQEPVLGPVRGPFPIIV
Chain of UniProt Q8IXJ6 (whole entry, looked up): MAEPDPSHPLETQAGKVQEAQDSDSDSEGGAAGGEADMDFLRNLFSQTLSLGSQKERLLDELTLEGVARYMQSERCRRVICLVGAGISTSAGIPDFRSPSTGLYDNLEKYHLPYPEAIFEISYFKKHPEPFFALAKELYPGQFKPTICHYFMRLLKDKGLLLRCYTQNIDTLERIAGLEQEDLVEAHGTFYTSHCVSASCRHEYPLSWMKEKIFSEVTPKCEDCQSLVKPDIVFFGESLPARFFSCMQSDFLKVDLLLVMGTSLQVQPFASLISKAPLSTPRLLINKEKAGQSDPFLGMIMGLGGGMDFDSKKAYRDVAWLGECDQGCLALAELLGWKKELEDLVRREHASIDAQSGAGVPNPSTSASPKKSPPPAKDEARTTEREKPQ
Chain of UniProt O60656 (whole entry, looked up): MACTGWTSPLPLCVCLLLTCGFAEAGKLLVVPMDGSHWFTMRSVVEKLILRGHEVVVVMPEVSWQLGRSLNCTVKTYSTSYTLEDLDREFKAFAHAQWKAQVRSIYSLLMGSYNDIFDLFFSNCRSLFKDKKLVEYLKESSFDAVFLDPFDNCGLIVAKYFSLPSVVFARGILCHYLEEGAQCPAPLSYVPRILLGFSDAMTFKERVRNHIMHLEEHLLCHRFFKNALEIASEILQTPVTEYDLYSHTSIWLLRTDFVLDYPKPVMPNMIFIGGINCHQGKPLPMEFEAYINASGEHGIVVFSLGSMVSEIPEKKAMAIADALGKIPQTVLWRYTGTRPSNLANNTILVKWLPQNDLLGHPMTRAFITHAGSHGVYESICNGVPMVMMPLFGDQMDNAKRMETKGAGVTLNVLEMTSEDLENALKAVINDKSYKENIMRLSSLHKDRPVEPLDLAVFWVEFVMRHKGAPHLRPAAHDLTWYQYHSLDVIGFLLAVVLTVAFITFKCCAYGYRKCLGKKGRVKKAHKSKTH
Chain of UniProt Q9FII5 (whole entry, looked up): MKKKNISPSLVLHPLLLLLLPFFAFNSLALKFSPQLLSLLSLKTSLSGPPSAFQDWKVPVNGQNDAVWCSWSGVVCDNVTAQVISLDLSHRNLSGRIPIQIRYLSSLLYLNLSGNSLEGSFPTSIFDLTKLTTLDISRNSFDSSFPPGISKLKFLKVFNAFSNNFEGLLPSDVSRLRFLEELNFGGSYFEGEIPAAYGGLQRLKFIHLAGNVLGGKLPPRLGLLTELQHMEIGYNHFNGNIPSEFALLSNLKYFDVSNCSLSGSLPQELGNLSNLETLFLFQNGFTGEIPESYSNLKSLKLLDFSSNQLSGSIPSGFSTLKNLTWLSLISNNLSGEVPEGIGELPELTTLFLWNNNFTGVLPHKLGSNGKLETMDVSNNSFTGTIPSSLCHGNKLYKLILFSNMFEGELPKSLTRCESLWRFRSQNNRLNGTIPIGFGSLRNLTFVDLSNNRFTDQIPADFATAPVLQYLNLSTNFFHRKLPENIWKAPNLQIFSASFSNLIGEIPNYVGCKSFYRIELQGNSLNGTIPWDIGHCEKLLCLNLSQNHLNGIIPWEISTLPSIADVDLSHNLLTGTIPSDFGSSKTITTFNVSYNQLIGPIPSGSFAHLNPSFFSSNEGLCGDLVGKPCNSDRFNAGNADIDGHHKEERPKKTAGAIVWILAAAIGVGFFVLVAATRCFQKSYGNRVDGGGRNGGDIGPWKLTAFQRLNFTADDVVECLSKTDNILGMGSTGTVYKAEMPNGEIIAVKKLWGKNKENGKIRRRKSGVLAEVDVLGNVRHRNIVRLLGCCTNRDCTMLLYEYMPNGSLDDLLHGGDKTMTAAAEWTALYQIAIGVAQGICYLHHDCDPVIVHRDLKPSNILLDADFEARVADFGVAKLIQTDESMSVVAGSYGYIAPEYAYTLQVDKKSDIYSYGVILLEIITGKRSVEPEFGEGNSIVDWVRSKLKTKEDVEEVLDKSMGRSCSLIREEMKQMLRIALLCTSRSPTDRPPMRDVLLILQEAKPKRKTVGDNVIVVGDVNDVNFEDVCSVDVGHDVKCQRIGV
Chain of UniProt Q9UNE7 (whole entry, looked up): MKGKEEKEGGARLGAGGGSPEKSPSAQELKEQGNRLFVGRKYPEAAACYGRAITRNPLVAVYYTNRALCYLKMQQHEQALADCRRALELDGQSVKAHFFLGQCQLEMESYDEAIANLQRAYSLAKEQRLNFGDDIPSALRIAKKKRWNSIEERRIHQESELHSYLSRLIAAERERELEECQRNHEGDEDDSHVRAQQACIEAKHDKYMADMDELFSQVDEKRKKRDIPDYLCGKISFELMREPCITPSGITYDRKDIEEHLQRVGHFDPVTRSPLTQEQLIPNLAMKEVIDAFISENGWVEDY

With `UGT1A9 (Homo sapiens, UniProt O60656)` the Vmax was 0.0022 µmol/min/mg (O=c1c(O)c(-c2ccc(O)c(O)c2)oc2ccccc12; steady-state kinetics; pH 7.4, 37 °C).
`human neutrophil elastase` has a Kd of > 100 nM (TLR4/LY96; ELISA; 70 min, 37 °C).
The Kd of `human Hsc70` is reported as 70 ± 10 nM (STUB1 (Homo sapiens, UniProt Q9UNE7); binder, biolayer interferometry; pH 7.4, 25 °C, kinetic, koff/kon).
The Km of `EYSEEELKT (also: fluorescent label and quencher, sites not given here; sequence looked up)` is reported as 1.05 ± 0.17 µM (SIRT2 (Homo sapiens, UniProt Q8IXJ6); enzyme activity, substrate, continuous fluorescence; peptide; 5 to 15 min, pH 7.4, 37 °C, enzyme 0.3 µM, buffer 1, with: NAD+ 1 mM).
`HEVPSGPNPISA (TDIF N12A; also: GST tag, end not given here)`: binding “decreased” (Leucine-rich repeat receptor-like protein kinase TDR, LRR domain (TDR, Arabidopsis thaliana, UniProt Q9FII5); GST pull-down; peptide; concentration not given, Arabidopsis).
`angiostatin` gave a Kd of 400 nM (ITGAM; binding).
`rat amylin` — result for “aggregation lag time”: 50 min (IAPP (Homo sapiens, UniProt P10997); circular dichroism; 1 molar equivalents).
With `plasminogen` the Kd was 100 nM (ITGAM; binding).
For `human cathepsin G`, the Kd was > 100 nM (TLR4/LY96; ELISA; 70 min, 37 °C).
For `B1 (bovine β-casein)`, “relative digestion rate” read 0.93 fold (Chymotrypsinogen A (Bos taurus, UniProt P00766); substrate digestion, substrate; 0.2 mg/mL, pH 8.0, 37 °C; reference: CTRB1).
